{"data": "Results gathered from unrelated publications", "note": "Numbered parts are unrelated; each lists some results of a single study."}
{"data": "Block 1", "target": "Sal-like protein 4, full length isoform B (SALL4, Homo sapiens, UniProt Q9UJQ4-2, residues 1-616)", "technique": "universal PBM", "molecule type": "double-stranded DNA, one strand shown", "matrix": "in vitro", "tested at": "not given", "notes": "8-mer, flanks averaged, mean of replicates", "reading": "higher = stronger binding", "Target sequence (chain)": "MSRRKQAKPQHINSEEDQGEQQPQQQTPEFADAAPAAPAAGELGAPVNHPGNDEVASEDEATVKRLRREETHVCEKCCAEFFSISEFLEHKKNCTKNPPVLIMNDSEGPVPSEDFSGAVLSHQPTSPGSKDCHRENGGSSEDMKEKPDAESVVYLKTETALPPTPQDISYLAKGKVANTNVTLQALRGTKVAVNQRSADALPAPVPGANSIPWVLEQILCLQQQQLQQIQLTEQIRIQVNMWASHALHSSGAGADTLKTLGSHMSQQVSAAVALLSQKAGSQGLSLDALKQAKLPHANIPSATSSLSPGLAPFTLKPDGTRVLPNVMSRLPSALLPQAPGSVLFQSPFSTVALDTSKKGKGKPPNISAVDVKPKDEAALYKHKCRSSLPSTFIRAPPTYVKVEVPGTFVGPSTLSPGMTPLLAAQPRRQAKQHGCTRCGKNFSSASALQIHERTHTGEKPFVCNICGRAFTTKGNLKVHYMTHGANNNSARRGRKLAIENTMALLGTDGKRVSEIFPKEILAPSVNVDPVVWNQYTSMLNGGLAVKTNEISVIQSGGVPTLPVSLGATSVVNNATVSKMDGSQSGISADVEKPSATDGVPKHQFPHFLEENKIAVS"}
{"Strand": "CGATTGCG", "E-score": -0.202}
{"Strand": "ACACCAGG", "E-score": -0.135}
{"Strand": "CAGAAGGA", "E-score": -0.0747}
{"data": "Block 2", "target": "Cyclic AMP-dependent transcription factor ATF-1 (ATF1, Homo sapiens, UniProt P18846, residues 1-271, full length assumed)", "technique": "protein-binding microarray", "molecule type": "double-stranded DNA, one strand shown", "matrix": "in vitro", "tested at": "not given", "notes": "k-mer, scored over probes, only values ≥0.25", "reading": "higher = stronger binding", "Residues (chain)": "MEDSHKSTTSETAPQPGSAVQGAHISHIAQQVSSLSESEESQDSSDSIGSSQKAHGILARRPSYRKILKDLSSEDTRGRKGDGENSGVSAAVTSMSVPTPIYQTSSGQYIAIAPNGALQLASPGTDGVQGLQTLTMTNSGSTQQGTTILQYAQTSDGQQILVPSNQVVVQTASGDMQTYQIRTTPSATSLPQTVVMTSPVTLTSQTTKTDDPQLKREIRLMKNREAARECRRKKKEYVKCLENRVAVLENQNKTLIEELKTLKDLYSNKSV"}
{"Strand": "ACGCACC", "E-score": 0.266}
{"Strand": "ATGACAC", "E-score": 0.336}
{"Strand": "ACGCGCA", "E-score": 0.254}
{"data": "Block 3", "target": "Histone acetyltransferase KAT6A, winged helix 1, GST fusion (KAT6A, Homo sapiens, UniProt Q92794, residues 1-85)", "technique": "protein binding microarray", "molecule type": "double-stranded DNA, one strand shown", "matrix": "in vitro", "tested at": "not given", "notes": "8-mer, flanks averaged, mean of 2 arrays, mostly near background", "relative to": "not given", "reading": "higher = stronger binding", "Target sequence (chain)": "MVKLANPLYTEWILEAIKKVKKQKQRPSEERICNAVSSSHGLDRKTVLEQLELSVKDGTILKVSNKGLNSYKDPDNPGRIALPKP"}
{"Strand": "AATCTGCA", "E-score": -0.214}
{"Strand": "GAGTCGCC", "E-score": 0.211}
{"Strand": "CAAATTGA", "E-score": -0.238}
{"Strand": "AACAGGTC", "E-score": -0.0988}
{"data": "Further values, each from its own experiment"}
{"Molecule": "PhoQ, residues 284 288 289 292 302 303 ASVMEA", "target": "PhoP, residues 12 14 15 18 19 TTLRV (Escherichia coli, UniProt P23836)", "test": "Sort-seq, refers to: YFP reporter", "test system": "E. coli", "setting": "PhoQ-PhoP variant library, together with: 10 µM Mg2+", "scale": "relative to: high Mg2+ state, higher = stronger signaling", "endpoint": "fold induction", "value": 18.6}
